Measured values from different studies.
Several values in a cell are separate wells, animals, samples, runs or records. Numbers after ± are the reported error. ≈ marks a conversion by molar mass, not a printed value.
Organism: Escherichia coli

SMILES | assay | system | setting | scale | quantity | value
C[C@@H](O)[C@H]1C(=O)N2C(C(=O)O)=C(SCCN=CN)C[C@H]12 | – | DH5a clone with KPC-137 | – | reference: empty vector strain | MIC fold increase | 8 fold
O=[N+]([O-])c1cc2cc3ccc4oc([N+](=O)[O-])cc4c3cc2o1 | REMA | – | – | – | MIC90 | > 32 µg/mL
CC[C@@H](C)[C@@H](N)C(=O)N[C@@H](C(=O)N[C@H](Cc1ccc(O)cc1)C(=O)N[C@@H](C(=O)N[C@H](CCN)C(=O)N[C@H](CC(C)C)C(=O)N[C@H](CO)C(=O)N[C@H](CCN)C(=O)N[C@@H](C(=O)N[C@H](CCN)C(=O)N[C@H](Cc1c[nH]cn1)C(=O)N[C@H](CCN)C(=O)N[C@H](C)C(=O)N[C@H](CCN)C(=O)N[C@H](CCN)C(N)=O)[C@H](C)CC)[C@H](C)CC)[C@H](C)CC | – | ATCC 25922, Mueller-Hinton broth with 100% human serum | – | reference: MH broth alone | MBC fold increase | 2 fold
CC[C@H](C)[C@H](N)C(=O)N[C@@H](CO)C(=O)N[C@@H](Cc1ccccc1)C(=O)N[C@@H](CC(C)C)C(=O)NCC(=O)N[C@@H](CO)C(=O)N[C@@H](CCCCN)C(=O)N[C@H](C(=O)N[C@H](C(=O)N[C@H](C(=O)N[C@@H](CC(C)C)C(=O)N[C@@H](CC(C)C)C(=O)N[C@@H](CCCCN)C(=O)N[C@@H](CCCNC(=N)N)C(=O)N[C@@H](CCCNC(=N)N)C(=O)N[C@@H](CCCCN)C(=O)N[C@@H](CCCNC(=N)N)C(=O)N[C@@H](CCCCN)C(=O)N[C@@H](CCCNC(=N)N)C(=O)N[C@@H](CCCCN)C(N)=O)C(C)C)C(C)C)C(C)C | checkerboard | – | unit not given, with: rifampicin | lower means synergy | FICI | 0.27
O=C(O)c1cn(C2CC2)c2cc(N3CCNCC3)c(F)cc2c1=O | – | ATCC 25922 | – | – | passages to resistance | 3 passages
CC(C)Cc1ccc(C(C)C(=O)O)cc1 (stereo not shown) | – | MG1655 RecA-GFP | 100 µM, 4 h | – | SOS response induction | 14%
CC(C)[C@@H]1NC(=O)CNC(=O)[C@H](CC(N)=O)NC(=O)[C@H](CCCNC(=N)N)NC(=O)[C@H](Cc2ccc(O)cc2)NC(=O)[C@H](C(C)C)NC(=O)[C@@H](NC(=O)[C@@H](NC(=O)[C@H](CC(N)=O)NC(=O)[C@H](Cc2c[nH]c3ccccc23)NC(=O)[C@H](C)NC(=O)[C@H](Cc2ccccc2)NC(=O)CN)C(C)C)CSSC[C@@H](C(=O)N[C@@H](Cc2c[nH]cn2)C(=O)N[C@@H](CCCNC(=N)N)C(=O)N[C@@H](CCCNC(=N)N)C(=O)N[C@@H](C)C(=O)N[C@@H](CC(N)=O)C(N)=O)NC(=O)[C@H](C(C)C)NC(=O)[C@H](CCCNC(=N)N)NC1=O | bactericidal activity | CGMCC 1.9 | 24 h | – | Emax | -4.84 log CFU
N#Cc1ccc2c(ccc3oc([N+](=O)[O-])cc32)c1 | REMA | – | – | – | MIC90 | > 32 µg/mL
CNC(C)C1CCC(N)C(OC2C(N)CC(N)C(OC3OCC(C)(O)C(NC)C3O)C2O)O1 (stereo not shown) | broth microdilution | – | – | – | MLC | 4 ± 1 µg/mL (≈ 8.38 µM)
CC[C@H](C)[C@H](NC(=O)[C@H](Cc1c[nH]c2ccccc12)NC(=O)[C@@H](NC(=O)[C@H](Cc1ccc(O)cc1)NC(=O)[C@@H]1CCCN1C(=O)[C@@H](NC(=O)[C@H](C)N)[C@@H](C)CC)[C@@H](C)CC)C(=O)N[C@@H](Cc1ccc(O)cc1)C(=O)N[C@@H](CCCNC(=N)N)C(=O)N[C@@H](CC(C)C)C(=O)N[C@@H](CC(C)C)C(=O)N[C@@H](CCCNC(=N)N)C(=O)N[C@@H](CCCCN)C(=O)NCC(N)=O | – | D31 | 18 h, 37 °C | – | MBC | > 15 µM
C[C@@H](O)[C@H]1C(=O)N2C(C(=O)O)=C(S[C@@H]3CN[C@H](CNS(N)(=O)=O)C3)[C@H](C)[C@H]12 | checkerboard | carbapenem-resistant | concentration not given, with: anionic gold nanoparticle 8 µg/mL | reference: MIC alone over combination | MIC fold reduction | > 16 fold
Cc1c([N+](=O)[O-])oc2ccc3ccccc3c12 | REMA | – | – | – | MIC90 | 2 µg/mL (≈ 8.8 µM)
CC[C@H](C)[C@H](NC(=O)[C@H](Cc1c[nH]c2ccccc12)NC(=O)[C@@H](N)CCCCN)C(=O)N[C@H]1CSSC[C@@H](C(=O)N[C@@H](CCCNC(=N)N)C(=O)N[C@@H](Cc2c[nH]c3ccccc23)C(=O)N[C@@H](CCCNC(=N)N)C(=O)O)NC(=O)[C@H](Cc2ccc(O)cc2)NC(=O)[C@H]([C@@H](C)O)NC(=O)[C@H]([C@@H](C)CC)NC(=O)[C@H](Cc2c[nH]c3ccccc23)NC(=O)[C@H](CCCNC(=N)N)NC(=O)CNC(=O)[C@H](CCCNC(=N)N)NC(=O)[C@H](Cc2ccc(O)cc2)NC(=O)[C@H](Cc2c[nH]c3ccccc23)NC(=O)[C@H](CC(C)C)NC(=O)[C@H](CCCNC(=N)N)NC(=O)[C@H](CCCNC(=N)N)NC1=O | bacterial growth | DH5α | 50% growth inhibition | – | IC50 | 8.6 µM
CCCCCCCCCCCC[N+](C)(C)Cc1ccccc1 | bacterial survival, bioluminescence | bioluminescent | 1 h, dark | – | IC50 | 21 µM
CCCCCC(=O)N[C@@H](CCCNC(=N)N)C(=O)N[C@@H](CCCNC(=N)N)C(=O)N[C@@H](CCCNC(=N)N)C(=O)N[C@@H](CCCNC(=N)N)C(=O)N[C@H](C(=O)N[C@@H](CC(C)C)C(=O)N[C@H](C(=O)N[C@@H](CCCNC(=N)N)C(=O)N[C@@H](CCCNC(=N)N)C(=O)N[C@H](C(=O)N[C@@H](CC(C)C)C(=O)N[C@@H](CCCNC(=N)N)C(=O)N[C@@H](CC(C)C)C(=O)N[C@@H](CCCNC(=N)N)C(=O)N[C@@H](CO)C(=O)N[C@@H](CO)C(=O)N[C@@H](C)C(=O)N[C@@H](Cc1ccc(O)cc1)C(N)=O)C(C)C)[C@@H](C)CC)[C@@H](C)CC | checkerboard | – | unit not given, with: azithromycin | lower means synergy | FICI | ~0.19
CC(C)C[C@H](NC(=O)[C@H](CCCCN)NC(=O)OCC1c2ccccc2-c2ccccc21)C(=O)N[C@H](C(=O)N[C@@H](Cc1ccccc1)C(=O)N[C@@H](Cc1ccccc1)C(=O)N[C@@H](CCCCN)C(=O)NCC(=O)N[C@@H](Cc1ccccc1)C(=O)N[C@@H](C)C(=O)N[C@@H](Cc1c[nH]c2ccccc12)C(=O)N[C@@H](CC(N)=O)C(=O)N[C@H](C(=O)N[C@H]1CSSC[C@@H](C(=O)N[C@@H](Cc2c[nH]cn2)C(=O)N[C@@H](CCCNC(=N)N)C(=O)N[C@@H](CCCNC(=N)N)C(=O)N[C@@H](C)C(=O)N[C@@H](CC(N)=O)C(N)=O)NC(=O)[C@H](C(C)C)NC(=O)[C@H](CCCNC(=N)N)NC(=O)[C@H](C(C)C)NC(=O)CNC(=O)[C@H](CC(N)=O)NC(=O)[C@H](CCCNC(=N)N)NC(=O)[C@H](Cc2ccc(O)cc2)NC(=O)[C@H](C(C)C)NC1=O)C(C)C)C(C)C | bactericidal activity | CGMCC 1.9 | 24 h | – | EC50 | 4.01 µM
CC1(C)S[C@@H]2[C@H](NC(=O)C(C(=O)O)c3ccccc3)C(=O)N2[C@H]1C(=O)O (stereo partly shown) | – | ΔtolC JW5503-1 | 200 µM, with: 30 µg/mL 2,2'-bipyridyl | – | zone of inhibition | 17 mm
CC[C@H](C)[C@H](N)C(=O)N[C@@H](CC(C)C)C(=O)NCC(=O)N[C@@H](CCC(=O)O)C(=O)N[C@H](C(=O)N[C@@H](Cc1c[nH]c2ccccc12)C(=O)N[C@@H](CCCCN)C(=O)NCC(=O)N[C@H](C(=O)N[C@@H](CCCCN)C(=O)N[C@@H](CC(=O)O)C(=O)N[C@H](C(=O)N[C@@H](CC(C)C)C(N)=O)[C@@H](C)CC)[C@@H](C)CC)[C@@H](C)CC | broth microdilution | ATCC 25922 | with: NH4Cl 6 µM | – | MIC | 100 µM (≈ 150 µg/mL)
C[C@@H](O)[C@H]1C(=O)N2C(C(=O)O)=C(S[C@@H]3CN[C@H](C(=O)N(C)C)C3)[C@H](C)[C@H]12 | – | neutropenic rat, lung infection | intravenous, 15 mg/kg every 12 h, second study | – | log10 CFU difference | -0.25 and -0.28 and -0.7
COc1cc2ccc3oc([N+](=O)[O-])cc3c2cc1OC | REMA | – | – | – | MIC90 | > 32 µg/mL
CC[C@H](C)[C@H](NC(=O)[C@H](CCCNC(=N)N)NC(=O)[C@H](CCCNC(=N)N)NC(=O)[C@@H](N)CCCNC(=N)N)C(=O)N[C@@H](CO)C(=O)N[C@@H](Cc1ccccc1)C(=O)N[C@@H](CC(C)C)C(=O)NCC(=O)N[C@@H](CO)C(=O)N[C@@H](CCCCN)C(=O)N[C@H](C(=O)N[C@H](C(=O)N[C@H](C(=O)N[C@@H](CCCNC(=N)N)C(=O)N[C@@H](CCCNC(=N)N)C(=O)N[C@@H](CCCCN)C(=O)N[C@@H](CCCNC(=N)N)C(N)=O)C(C)C)C(C)C)C(C)C | checkerboard | – | unit not given, with: rifampicin | lower means synergy | FICI | 0.16
CC(C)C[C@H](NC(=O)[C@H](CCN)NC(=O)[C@H](CCN)NC(=O)[C@@H](Cc1ccccc1)NC(=O)[C@H](CC(C)C)NC(=O)[C@H](CCN)NC(=O)[C@H](CCN)NC(=O)[C@@H](CCN)NC(=O)[C@@H](N)CSCCOC(=O)c1ccc(C(C)(C)C)cc1)C(N)=O | – | ATCC 10546 | 24 h, 37 °C | – | MBC | 8 µM (≈ 9.59 µg/mL)
CC[C@H](C)[C@H](NC(=O)[C@H](CCCNC(=N)N)NC(=O)[C@H](CCCNC(=N)N)NC(=O)[C@H](CCCNC(=N)N)NC(=O)[C@H](CCCNC(=N)N)NC(=O)[C@H](CC(C)C)NC(=O)[C@H](CCCNC(=N)N)NC(=O)[C@H](CO)NC(=O)[C@@H](N)CO)C(=O)N[C@H](C(=O)N[C@@H](CC(C)C)C(=O)N[C@@H](CCCNC(=N)N)C(=O)N[C@@H](CCCNC(=N)N)C(=O)N[C@@H](CCCNC(=N)N)C(=O)N[C@@H](CCCNC(=N)N)C(=O)N[C@@H](Cc1ccccc1)C(=O)N[C@@H](CO)C(=O)N[C@@H](C)C(=O)N[C@@H](Cc1ccc(O)cc1)C(N)=O)C(C)C | checkerboard | – | unit not given, with: azithromycin | lower means synergy | FICI | 0.19
COc1ccc2c(ccc3oc([N+](=O)[O-])c(C)c32)c1 | REMA | – | – | – | MIC90 | > 32 µg/mL
C[C@@H](O)[C@H]1C(=O)N2C(C(=O)O)=C([C@H]3CCCO3)S[C@H]12 | checkerboard | carbapenem-resistant | concentration not given, with: anionic gold nanoparticle 8 µg/mL | reference: MIC alone over combination | MIC fold reduction | 16 fold
